Assay results of several laboratories.
A part holds a random share of what one study measured. Changes are numbered by the printed parent chain.

Study 1
Target: CCNB2, cyclin fold, Cln2 fusion (human)
Method: yeast growth competition, sequencing
Matrix: yeast
Notes: weak parent motif
Reference: not given
Direction: higher = stronger binding
Starting sequence: BRCA2 docking peptide (human); CKKRRALDFLSRL
Change | normalised enrichment score
R5A | 0.568
K3A | 0.526
L13A | 0.675
R12A | 1.28
S11A | 0.747
R5K F9L | 1.05
F9A | 0.529

Study 2
Target: Centromere-binding protein 1, full length, N-terminal tag (CBF1, Saccharomyces cerevisiae, UniProt P17106, residues 1-351)
Sequence of UniProt P17106 (whole entry, looked up): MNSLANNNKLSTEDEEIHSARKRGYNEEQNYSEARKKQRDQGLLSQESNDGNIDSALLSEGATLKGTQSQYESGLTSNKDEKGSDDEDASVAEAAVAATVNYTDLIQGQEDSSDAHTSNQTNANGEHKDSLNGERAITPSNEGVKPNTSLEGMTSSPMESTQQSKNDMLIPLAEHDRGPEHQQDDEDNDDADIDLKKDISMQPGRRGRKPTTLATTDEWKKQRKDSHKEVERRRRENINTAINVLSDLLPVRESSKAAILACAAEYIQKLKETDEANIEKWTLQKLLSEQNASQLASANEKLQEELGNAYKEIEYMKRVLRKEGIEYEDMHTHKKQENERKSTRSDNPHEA
Method: protein-binding microarray
Form: double-stranded DNA, one strand shown
Matrix: in vitro
Tested at: 0.8 µM
Notes: whole 60-bp probe, no competitor
Direction: higher = stronger binding
Shared flanks, not repeated: … GTCTTGATTCGCTTGACGCTGCTG
Sequence | fluorescence intensity [a.u.]
CTATTTCTTCTGTGTCACACGTTGTGCTTGCCATTC | 643
CTAATTGTAAAGAATAACGTGGAGGCAGTCAGATTC | 535
GAAAGCGAGTTAACTAACGTGTTCGCCGGGCAATAG | 510
CTATAGTTATTGTTGCACCTGAGGCAAAAGCGGTTC | 573
CCTAACTACTATACACACGGGAAATAGCTTCGTACA | 526
TGTACGAAGCTATAAGGCGTGATTATAGTAGTTAGG | 676
GAACATAATGGCCGGCATGTGAAATCGCGGCTTTAG | 528
GAAGACTTTCTCACGCTGATGATGATGACAATTTAG | 560
GAAAGAATTAAGCCGCACGTGCTCGCCGCAGATTAG | 11400
CTAAAGACATGCTTTCTCATGACTGCCTAATAATTC | 669
GAACTTAGCTAATGCCACGTCAGAAAAATACACTAG | 560
GAAAATGCTTTAAGGCACGCCGCTTAACCTTTTTAG | 476
GAACAAATATATGATCACGTGCGATTGTGTAAATAG | 17800
CTATACTCTAAAAATGTGGTGGTGGCTTAATGCTTC | 504
CTATGTTTGTTTACGCACGTTTATATATTTAACTTC | 652
CTACGGAACTGTTCCCACGTTCTCTAGTTAATTTTC | 529
GAACCGAGCGAGAATCACGTAAAGAAGGTTCTATAG | 548
CTAAGCAGTTCCTCAGGTGTTTCTTGTTACTGCTTC | 512
GAACAATATTTTAATGTCGTGATATTGGTTCCCTAG | 684
TGTACGAAGCTATCATGTGATATTATAGTAGTTAGG | 2890
CTACTATGAATTTCACACCATATCCTTATCTAATTC | 532

Study 3
Target: Interferon regulatory factor 7, full length, phosphomimetic (IRF7, Homo sapiens, UniProt Q92985, residues 1-503, S101K/S471D/S472D/S475D/S476D/S477D/S483D/S484D/S487D)
Method: protein-binding microarray
Form: double-stranded DNA, one strand shown
Matrix: in vitro
Tested at: 250 nM
Notes: 60-bp whole probe
Together with: salmon DNA 0.4 mg/ml
Reference: random background probes
Direction: higher = stronger binding
Shared flanks, not repeated: GCCTAGCAC … GTCTTGATTCGCTTGACGCTGCTG
Construct (chain): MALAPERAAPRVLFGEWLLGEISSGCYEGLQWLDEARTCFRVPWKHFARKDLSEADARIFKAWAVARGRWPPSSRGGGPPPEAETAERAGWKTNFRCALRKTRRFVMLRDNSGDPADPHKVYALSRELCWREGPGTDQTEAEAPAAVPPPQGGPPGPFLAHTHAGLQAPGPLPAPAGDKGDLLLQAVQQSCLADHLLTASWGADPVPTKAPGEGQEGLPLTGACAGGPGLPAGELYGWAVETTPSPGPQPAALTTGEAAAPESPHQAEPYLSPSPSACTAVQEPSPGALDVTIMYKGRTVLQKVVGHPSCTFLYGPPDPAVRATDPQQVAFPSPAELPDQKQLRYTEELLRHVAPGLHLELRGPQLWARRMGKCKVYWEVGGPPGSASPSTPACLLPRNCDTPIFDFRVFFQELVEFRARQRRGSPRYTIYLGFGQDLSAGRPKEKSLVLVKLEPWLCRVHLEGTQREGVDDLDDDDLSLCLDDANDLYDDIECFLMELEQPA
Sequence | log fluorescence [z-score]
GACGGACTGGACACTGGGGAGGTGCTA | -0.683
CTGCCTGGCCAAGCCCAGATGTGCTAG | -0.369
TACGATTTCGGGTATCGAGACGTGCTA | 0.825
GACGGTCTCCTGATCCTGACGTGCTAG | -0.272
TTAGGATTCCTTATCCTTTAGTGCTAG | 0.666
GACGGGATCCTTATCCTGACGTGCTAG | -0.413
TTAGGACTGCTTCACCTTTAGTGCTAG | 0.492
TTAGGTATCGGTATCGCTTAGTGCTAG | 1.96
GACGAACTGGGGACTGGAGAGGTGCTA | -0.636
TTAGGTTTCGGTTCCGGCTAGTGCTAG | 12.3
TTAGGTTTCGGCTATCGGTTAGTGCTA | 3.48
TTAGATTTCAGCCTGGATTAGTGCTAG | 0.017
AACGGTTTCGACACTGGGGACGTGCTA | 4.04
TCAGTTTTCACTTTTCCACTGTGCTAG | 3.15
GACCATATCAGTATCGAGACGTGCTAG | 0.636
TTAGATTTCAGTTCAGATTAGTGCTAG | 0.798
GACGGACGGGGACTGGGGACGTGCTAG | -0.557
GACGGGTTCCTTTCCCTGACGTGCTAG | 1.24
TTAGGACTGCATATCCTTTAGTGCTAG | -0.213
GACGGTTTCGGTCTCCGGACGTGCTAG | 8.95
TCAAATTTCCACTTTGAACTGTGCTAG | 1.31
TTTGGTATCGGTTTCGGTTAGTGCTAG | 10.9

Study 4
Target: Sal-like protein 4, full length isoform A (SALL4, Homo sapiens, UniProt Q9UJQ4, residues 1-1053)
Sequence of UniProt Q9UJQ4 (whole entry, looked up): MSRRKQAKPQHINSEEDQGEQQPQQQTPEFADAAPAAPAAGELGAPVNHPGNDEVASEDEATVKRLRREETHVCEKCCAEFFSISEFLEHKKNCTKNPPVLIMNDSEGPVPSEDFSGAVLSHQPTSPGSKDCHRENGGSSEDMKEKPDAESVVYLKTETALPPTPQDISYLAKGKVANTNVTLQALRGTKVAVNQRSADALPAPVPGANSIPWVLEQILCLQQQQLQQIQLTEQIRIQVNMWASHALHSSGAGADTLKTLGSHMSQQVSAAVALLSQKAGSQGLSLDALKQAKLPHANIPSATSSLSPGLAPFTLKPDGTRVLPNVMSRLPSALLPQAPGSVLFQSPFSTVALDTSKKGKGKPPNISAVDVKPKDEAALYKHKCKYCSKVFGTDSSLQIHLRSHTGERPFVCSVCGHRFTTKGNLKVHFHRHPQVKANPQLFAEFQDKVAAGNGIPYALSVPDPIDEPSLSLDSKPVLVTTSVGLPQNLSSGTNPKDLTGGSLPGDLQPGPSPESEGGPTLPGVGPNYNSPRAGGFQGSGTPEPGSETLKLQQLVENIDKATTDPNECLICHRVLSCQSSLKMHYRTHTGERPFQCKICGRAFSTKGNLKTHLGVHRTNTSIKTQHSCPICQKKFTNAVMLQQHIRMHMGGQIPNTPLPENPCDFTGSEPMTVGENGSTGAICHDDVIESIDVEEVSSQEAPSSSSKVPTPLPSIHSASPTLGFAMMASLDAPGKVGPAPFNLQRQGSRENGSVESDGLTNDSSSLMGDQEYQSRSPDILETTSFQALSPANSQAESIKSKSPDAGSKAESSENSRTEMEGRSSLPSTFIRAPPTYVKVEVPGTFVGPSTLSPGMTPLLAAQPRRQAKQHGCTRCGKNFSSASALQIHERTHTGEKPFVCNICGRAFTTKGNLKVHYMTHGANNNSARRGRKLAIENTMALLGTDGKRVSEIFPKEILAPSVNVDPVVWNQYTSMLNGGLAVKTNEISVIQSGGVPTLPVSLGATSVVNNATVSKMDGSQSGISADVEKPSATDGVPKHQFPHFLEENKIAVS
Method: universal PBM
Form: double-stranded DNA, one strand shown
Matrix: in vitro
Tested at: 600 nM
Notes: 8-mer, flanks averaged, mean of replicates
Direction: higher = stronger binding
Sequence | E-score
CGATAAAA | 0.247
ATGACATC | 0.156
CACGGTTA | 0.158
CTCCCTCA | -0.192
GCACCGCA | -0.258
AAATTATT | 0.468
CGCTTAGC | -0.366
AGGCGCTC | -0.326
CCTCGGCA | -0.202
GCCGATAC | -0.155
ACGTGGGC | -0.186
AGACGTCA | -0.101
ACTAGTTA | 0.225
CATTTTGA | 0.182
GTCGGAAA | 0.0647
CCCCCCGG | -0.483
ATTTCTAG | 0.203
ACACAAGG | -0.106
AAACGGCG | -0.0923
CTAGCTTC | -0.131
GAGTCTAA | 0.0426
GAGAGCAC | -0.134
CGCGCTCC | -0.309
ACATCTGA | 0.0578
AAACTGCC | -0.0679

Some of these lines once more (study 4):
Sequence | E-score
CCTCGGCA | -0.202
GCCGATAC | -0.155
ACGTGGGC | -0.186
AGACGTCA | -0.101
ACTAGTTA | 0.225
CATTTTGA | 0.182
GTCGGAAA | 0.0647
